Published values pooled from the literature.
Parts stem from different laboratories: compare values within a part only.

Block 1
Target: Interferon regulatory factor 5, full length, phosphomimetic (IRF5, Homo sapiens, UniProt Q13568-2, residues 1-514, S451D/S453D/S456D/S462D)
Technique: protein-binding microarray
Molecule type: double-stranded DNA, one strand shown
Medium: in vitro
Concentration: 940 nM top
Setting: 60-bp whole probe
Added: salmon DNA 0.4 mg/ml
Reference: random background probes
Reading: higher = stronger binding
Shared flanks, not repeated: GCCTAGCAC … GTCTTGATTCGCTTGACGCTGCTG
Sequence	fitted relative affinity
GACGAGCTCAGACTGGAGACGTGCTAG	-0.749 z-score
GACGGTTTCCTTTCACTGACGTGCTAG	2.3 z-score
TCATGGGTCTTGTCTGGAACTGTGCTA	0.0482 z-score
TTAGGACTTGGGTTTCGGTTAGTGCTA	5.84 z-score
CTTTCCTTTGCTTTCTCCCAGTGCTAG	2.49 z-score
TTAGTTTTCGGACTGGGTTAGTGCTAG	1.84 z-score
GACTGTCTCGGTATCGGGACGTGCTAG	4.53 z-score
GACGATATCATTTTCGAGACGTGCTAG	0.674 z-score
TTAGATTTCGGGCATCGATTAGTGCTA	0.841 z-score
TCAGGTTTCGGGACTGGGTTAGTGCTA	7.35 z-score
GACGGTTTTCTTTTCCTGACGTGCTAG	1.51 z-score
GACGGTTTCCTACTACTGACGTGCTAG	1.5 z-score
TCACATTTTGTTTTTCAACTGTGCTAG	1.2 z-score
ATGAAGTTCTTTTTTTCAAGGTGCTAG	0.732 z-score
TCATCTTTCCTCACCATACTGTGCTAG	1.54 z-score
GACGGTATCGGTTTCGGGAAGTGCTAG	9.96 z-score
ATTACTCCCCAACTCGCCTTGTGCTAG	0.599 z-score
TCAGCTCTCTGGACTGTGACTGTGCTA	-0.0219 z-score

Block 2
Target: RNA binding protein fox-1 homolog 2, RRM domain, GST-SBP tag (RBFOX2, Homo sapiens, UniProt O43251-10, residues 100-194)
Technique: RNA Bind-n-Seq
Molecule type: RNA
Medium: in vitro
Concentration: 365 nM
Setting: natural RNA segment, single round, ends assumed
Reference: no-protein control
Reading: higher = stronger binding
Shared flanks, not repeated: GGGAGUUCUACAGUCCGACGAUC … UGGAAUUCUCGGGUGCCAA
Residues (chain): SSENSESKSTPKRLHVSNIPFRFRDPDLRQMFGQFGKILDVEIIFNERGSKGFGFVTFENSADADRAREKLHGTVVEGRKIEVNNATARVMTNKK
Sequence	RBNS enrichment (R)
CUGGAACAGUUUCCUUCUCUGCUUUUGACUUUAAAUCCCUGGGUGUCCCCCAGGAGUCAGUUUGCUAGUGGAUAAUGGAGGAGGUUCUACACUGACCCAGAGGCAUAGGA	0.296
AGAGAUUGGGCUUCAGCCUUCAGCAGGUGGUUCUCUCCCAUGCCUGGCCUUGGUGUGGAGGGGCUGUACUCUGAGCCCAAGUGAGUCAGCUAUAGGAAGAGGCCAUACCU	0.31
CCUUUUUUAUGAUUUUGUAAGUUCCCAUAAGUUGUGUGCACGAGGUUCUGAGAGUGCCCGCAGGCUGCUGCGUCCUGGCCCCUCUGUAGUGGCUGCGGGCGUCUUGGUUG	1.17
GAAGACUCCAGGACAGGACAGGCAAAUUCAUGGUAUGUAUGCAGUUGCUGCUCCUGCUUCACCUGUGGCAGACAUCGCUAAUCGAUCACAGCACUCUAUCUCUCAGAGUC	0.306
GCAGCCCAUUUUUGAAAUGUCAGCAUGUGCUGUGUUCAGUUCAGGUUUUUGUUGUUUGUUUUGUUAUUUUUUAACUAAUAAGUUGGUUAUCAGUGGUGGGUUUUCAAAAU	3.67
UGUGGUUAGUUAACCGUACUGAGUUAUCCAUCUAGCAUCUGUGGCUUGCUGGAAGGGUAGUAUUAACUAUUUAACAUGUAAUGGUGUACUUCACUCUUACCUAGCACGCU	0.459
UCUGUGUGAAUAUGUUUUAGAUGUUUAUAUACAUUUUGAAGAGACCCAGUAGCCCAUAGCACAAAUCUUGUGAACAUCUGAUAUGUUUUCAAGUGGCUACCUAGGAUAAG	0.49
CUUUCCACCCCUGGAAGAUGGAAAUAAACCUGCGUGUGGGUGGAGUGUUAGGACCAACGGUUUCCUAGGAGUAUGUGGUUUUGCUGUGUGGCCUGUGUCCUGACUCGCAC	2.55
GCACCGCCCACCCACACCCCGUCUGCCCCUUGACCCCACACGCCGGGGCUGGCCCUGCCCUCCCCCACGGCCGUCCCUGACUUCCCAGCUGGCAGCGCCUCCCGCCGCCU	0.731
ACACGGGACUACAGAUGGUGCCCUCUCAGGAGUUUUGGGGGAGAAUAGGAGUUACCCAUCAGGUUUCUCUUGGGAUUUUGUAAAUGGAGAGGACAGUUCUUAGUCCAAUA	0.495
CAGAUUCGUCUUCUGAGAGCUUGAAGCAACCCAUGAUUUGUCCCUCCACUGCUCUUCACUGGGUUCACUUCCAAGGAGACUAAUGGCUCUAUUGUAAAAAUUGCUCUUAA	0.285
UGAAAUACUCAGGAGCUGAGUGAGUAUGUUUGUUGCUACUUACAAUCCCAACCUGUUAGUCCCAGUAGUUUUGUUUUAACAUGGUCUUUUUCAACUUUGUUUCCUGUUUA	0.71

Block 3
Target: Prothrombin, mature alpha-thrombin (F2, Homo sapiens, UniProt P00734)
Technique: aptamer microarray, sandwich
Molecule type: DNA with 2'F-ANA
Medium: in vitro
Concentration: 200 nM
Setting: whole 15-mer aptamer, many near background
Added: Cy3 exosite-II aptamer, 400 nM
Reading: higher = stronger binding
Sequence: GGTTGGTGTGGTTGG
Modification	mean fluorescence intensity
2'F-ANA at 2 4 6 7 8 10	89.4 a.u.
2'F-ANA at 3 4 6 7 8 9 10 12 14 15	166 a.u.
2'F-ANA at 1 2 8 10 12 13 14 15	49 a.u.
2'F-ANA at 1 3 5 6 8 10 13 14 15	51.2 a.u.
2'F-ANA at 5 6 7 8 9 13 14 15	45.6 a.u.
2'F-ANA at 1 2 3 5 6 8 9 13	86 a.u.
2'F-ANA at 3 7 8 11 15	1070 a.u.
2'F-ANA at 1 2 5 6 8 11 15	57.7 a.u.
2'F-ANA at 2 3 4 7 9 10 11 13 14 15	156 a.u.
2'F-ANA at 2 4 6 7 8 9 11 12 15	379 a.u.
2'F-ANA at 1 3 4 6 10 12 14 15	76.8 a.u.
2'F-ANA at 4 5 7 9 10 15	46.2 a.u.
2'F-ANA at 3 4 5 7 9 11 13 15	60.9 a.u.
2'F-ANA at 1 2 4 5 7 8 9 10 12 13	49.4 a.u.
2'F-ANA at 2 3 8 13	732 a.u.
2'F-ANA at 1 4 5 8 11 12 13 14	50.8 a.u.
2'F-ANA at 1 3 5 6 7 8 12 13 14	54.8 a.u.
2'F-ANA at 1 5 7 13 15	49.6 a.u.
2'F-ANA at 5 8 11 12 13 15	96 a.u.
2'F-ANA at 7 8 10 11 12 13	190 a.u.

Block 4
Target: Sal-like protein 4, full length isoform A (SALL4, Homo sapiens, UniProt Q9UJQ4, residues 1-1053)
Chain of UniProt Q9UJQ4 (whole entry, looked up): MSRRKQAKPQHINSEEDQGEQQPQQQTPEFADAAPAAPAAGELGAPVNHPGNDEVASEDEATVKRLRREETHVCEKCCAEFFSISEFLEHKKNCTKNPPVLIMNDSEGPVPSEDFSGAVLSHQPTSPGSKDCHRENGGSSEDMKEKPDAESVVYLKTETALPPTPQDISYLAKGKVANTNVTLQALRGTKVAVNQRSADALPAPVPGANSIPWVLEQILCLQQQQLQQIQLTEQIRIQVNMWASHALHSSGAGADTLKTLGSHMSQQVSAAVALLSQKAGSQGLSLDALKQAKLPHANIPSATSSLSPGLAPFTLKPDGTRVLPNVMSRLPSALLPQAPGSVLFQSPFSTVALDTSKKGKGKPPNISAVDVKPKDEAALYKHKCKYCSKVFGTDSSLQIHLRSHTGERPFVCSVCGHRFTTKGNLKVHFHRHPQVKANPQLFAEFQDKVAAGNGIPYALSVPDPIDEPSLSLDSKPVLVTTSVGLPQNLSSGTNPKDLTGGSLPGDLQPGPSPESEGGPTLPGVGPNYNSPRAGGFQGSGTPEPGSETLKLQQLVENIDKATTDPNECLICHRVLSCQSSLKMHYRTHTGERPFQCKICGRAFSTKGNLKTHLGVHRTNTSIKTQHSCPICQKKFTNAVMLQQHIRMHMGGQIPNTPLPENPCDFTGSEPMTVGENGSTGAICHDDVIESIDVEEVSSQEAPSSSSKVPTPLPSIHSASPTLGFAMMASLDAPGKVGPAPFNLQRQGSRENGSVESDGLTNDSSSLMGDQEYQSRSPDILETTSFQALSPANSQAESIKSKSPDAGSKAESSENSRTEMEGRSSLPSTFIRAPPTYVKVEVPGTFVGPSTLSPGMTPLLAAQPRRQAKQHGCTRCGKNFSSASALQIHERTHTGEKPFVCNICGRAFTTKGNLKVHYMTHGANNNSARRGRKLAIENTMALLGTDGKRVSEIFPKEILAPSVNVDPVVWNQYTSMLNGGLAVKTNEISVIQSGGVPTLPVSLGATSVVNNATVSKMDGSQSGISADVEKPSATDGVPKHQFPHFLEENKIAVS
Technique: universal PBM
Molecule type: double-stranded DNA, one strand shown
Medium: in vitro
Concentration: 600 nM
Setting: 8-mer, flanks averaged, mean of replicates
Reading: higher = stronger binding
Sequence	E-score
TGAGTTAA	0.123
CTGCACAG	-0.21
GCTTCACA	-0.0227
AGGCTCGA	-0.0402
GAAGTAAA	0.207
ATCATAAG	0.361
TTAACTAA	0.244
ACTTTCCA	0.176
ATCCGCGA	-0.0688
AATCCATT	0.235
AGTAGTCG	-0.0872
ATCCATAA	0.396
AGTTCAGA	0.0931
GCGCAAGC	-0.268
CCTATAGC	0.0976
ATGAATCA	0.231
AAAGACAG	0.0914
ATTTCACA	0.311
GAACGCAA	0.0644
GACACCTC	-0.243
ATTTTTCG	0.307

A few entries again (block 1):
Sequence	fitted relative affinity
TCATCTTTCCTCACCATACTGTGCTAG	1.54 z-score
CTTTCCTTTGCTTTCTCCCAGTGCTAG	2.49 z-score
GACGGTTTCCTTTCACTGACGTGCTAG	2.3 z-score
TCAGGTTTCGGGACTGGGTTAGTGCTA	7.35 z-score
TTAGGACTTGGGTTTCGGTTAGTGCTA	5.84 z-score
TTAGTTTTCGGACTGGGTTAGTGCTAG	1.84 z-score
